Assay results from different studies.
Every numbered part comes from another study and shows a few of its results, in no order. Values joined by “and” are separate records of one study, mostly repeats; a detail may differ.
Chain of UniProt P54760 (whole entry, looked up): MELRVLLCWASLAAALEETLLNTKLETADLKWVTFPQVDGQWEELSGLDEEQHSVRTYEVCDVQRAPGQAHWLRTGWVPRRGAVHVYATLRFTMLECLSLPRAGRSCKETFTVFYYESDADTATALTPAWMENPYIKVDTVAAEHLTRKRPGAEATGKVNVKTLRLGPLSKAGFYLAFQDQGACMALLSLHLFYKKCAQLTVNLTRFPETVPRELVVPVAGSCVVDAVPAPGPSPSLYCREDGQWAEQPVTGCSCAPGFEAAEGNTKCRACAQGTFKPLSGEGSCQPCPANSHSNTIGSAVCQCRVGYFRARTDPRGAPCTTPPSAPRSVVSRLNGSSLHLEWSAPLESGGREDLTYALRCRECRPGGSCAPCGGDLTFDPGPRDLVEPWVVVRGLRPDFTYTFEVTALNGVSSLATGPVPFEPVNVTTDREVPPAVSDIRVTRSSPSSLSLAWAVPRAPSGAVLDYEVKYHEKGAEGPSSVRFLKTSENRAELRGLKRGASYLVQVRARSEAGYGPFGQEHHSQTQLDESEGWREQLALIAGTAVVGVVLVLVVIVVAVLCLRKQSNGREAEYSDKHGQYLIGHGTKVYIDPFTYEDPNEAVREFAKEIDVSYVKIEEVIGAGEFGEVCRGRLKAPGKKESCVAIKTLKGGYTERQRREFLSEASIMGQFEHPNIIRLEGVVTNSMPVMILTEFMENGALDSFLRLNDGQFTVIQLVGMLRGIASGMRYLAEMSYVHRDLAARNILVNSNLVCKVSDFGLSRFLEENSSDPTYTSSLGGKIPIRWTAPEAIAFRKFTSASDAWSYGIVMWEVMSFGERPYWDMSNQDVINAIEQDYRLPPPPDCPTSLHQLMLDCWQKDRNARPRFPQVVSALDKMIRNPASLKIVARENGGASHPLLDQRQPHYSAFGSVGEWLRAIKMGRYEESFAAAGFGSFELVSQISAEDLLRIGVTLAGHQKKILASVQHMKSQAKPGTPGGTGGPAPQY
Chain of UniProt Q9BUB5 (whole entry, looked up): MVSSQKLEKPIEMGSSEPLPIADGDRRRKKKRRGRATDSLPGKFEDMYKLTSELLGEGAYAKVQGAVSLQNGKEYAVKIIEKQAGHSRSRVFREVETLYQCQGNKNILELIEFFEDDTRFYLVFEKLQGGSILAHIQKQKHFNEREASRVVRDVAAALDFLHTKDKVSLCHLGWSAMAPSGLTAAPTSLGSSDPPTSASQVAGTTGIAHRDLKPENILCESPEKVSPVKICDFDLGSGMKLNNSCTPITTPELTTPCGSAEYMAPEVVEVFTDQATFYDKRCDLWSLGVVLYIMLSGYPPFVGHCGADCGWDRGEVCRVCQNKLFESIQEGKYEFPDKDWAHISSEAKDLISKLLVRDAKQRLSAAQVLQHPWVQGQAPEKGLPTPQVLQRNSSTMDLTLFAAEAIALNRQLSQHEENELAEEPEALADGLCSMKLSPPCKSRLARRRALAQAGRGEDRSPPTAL
Chain of UniProt Q07002 (whole entry, looked up): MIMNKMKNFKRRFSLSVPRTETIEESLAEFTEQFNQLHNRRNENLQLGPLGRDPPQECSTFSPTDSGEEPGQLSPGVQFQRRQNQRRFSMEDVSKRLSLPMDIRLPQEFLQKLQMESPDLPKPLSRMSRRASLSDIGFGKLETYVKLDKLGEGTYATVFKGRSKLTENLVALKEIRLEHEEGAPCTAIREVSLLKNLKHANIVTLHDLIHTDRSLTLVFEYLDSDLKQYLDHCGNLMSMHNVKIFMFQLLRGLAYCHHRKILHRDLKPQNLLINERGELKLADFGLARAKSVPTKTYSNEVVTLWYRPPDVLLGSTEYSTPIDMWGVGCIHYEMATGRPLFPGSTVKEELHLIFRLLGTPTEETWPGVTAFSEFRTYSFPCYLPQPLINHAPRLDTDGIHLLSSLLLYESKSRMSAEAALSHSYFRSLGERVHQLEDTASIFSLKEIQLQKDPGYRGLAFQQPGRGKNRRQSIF
Chain of UniProt O75914 (whole entry, looked up): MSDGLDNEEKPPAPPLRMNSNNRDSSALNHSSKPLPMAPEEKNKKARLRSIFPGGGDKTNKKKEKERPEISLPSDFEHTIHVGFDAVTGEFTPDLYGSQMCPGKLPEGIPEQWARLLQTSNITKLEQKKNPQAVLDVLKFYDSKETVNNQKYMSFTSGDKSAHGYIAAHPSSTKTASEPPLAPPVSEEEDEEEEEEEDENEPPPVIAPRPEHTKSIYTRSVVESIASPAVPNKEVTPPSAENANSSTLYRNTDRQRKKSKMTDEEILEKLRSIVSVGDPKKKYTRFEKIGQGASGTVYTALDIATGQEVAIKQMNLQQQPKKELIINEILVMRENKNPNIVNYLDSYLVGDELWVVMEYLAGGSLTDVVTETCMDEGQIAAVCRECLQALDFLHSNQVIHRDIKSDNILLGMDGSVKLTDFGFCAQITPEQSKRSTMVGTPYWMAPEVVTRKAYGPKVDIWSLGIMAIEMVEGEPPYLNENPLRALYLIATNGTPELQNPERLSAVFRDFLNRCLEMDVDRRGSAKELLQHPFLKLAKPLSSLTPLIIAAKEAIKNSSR
Chain of UniProt Q9HAZ1 (whole entry, looked up): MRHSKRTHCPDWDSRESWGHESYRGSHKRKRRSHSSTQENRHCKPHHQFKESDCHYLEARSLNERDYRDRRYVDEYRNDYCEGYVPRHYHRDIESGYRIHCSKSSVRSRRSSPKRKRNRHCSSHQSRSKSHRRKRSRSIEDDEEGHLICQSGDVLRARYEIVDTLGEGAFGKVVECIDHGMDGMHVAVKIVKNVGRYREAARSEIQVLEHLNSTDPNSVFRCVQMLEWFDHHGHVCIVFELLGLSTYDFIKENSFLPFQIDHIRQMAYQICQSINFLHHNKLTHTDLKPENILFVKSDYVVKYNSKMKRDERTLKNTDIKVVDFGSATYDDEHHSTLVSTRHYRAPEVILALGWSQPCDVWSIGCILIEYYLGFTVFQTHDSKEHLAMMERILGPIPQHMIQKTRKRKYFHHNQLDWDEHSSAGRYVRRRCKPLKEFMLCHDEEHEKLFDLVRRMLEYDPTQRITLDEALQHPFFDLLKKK
Chain of UniProt Q08881 (whole entry, looked up): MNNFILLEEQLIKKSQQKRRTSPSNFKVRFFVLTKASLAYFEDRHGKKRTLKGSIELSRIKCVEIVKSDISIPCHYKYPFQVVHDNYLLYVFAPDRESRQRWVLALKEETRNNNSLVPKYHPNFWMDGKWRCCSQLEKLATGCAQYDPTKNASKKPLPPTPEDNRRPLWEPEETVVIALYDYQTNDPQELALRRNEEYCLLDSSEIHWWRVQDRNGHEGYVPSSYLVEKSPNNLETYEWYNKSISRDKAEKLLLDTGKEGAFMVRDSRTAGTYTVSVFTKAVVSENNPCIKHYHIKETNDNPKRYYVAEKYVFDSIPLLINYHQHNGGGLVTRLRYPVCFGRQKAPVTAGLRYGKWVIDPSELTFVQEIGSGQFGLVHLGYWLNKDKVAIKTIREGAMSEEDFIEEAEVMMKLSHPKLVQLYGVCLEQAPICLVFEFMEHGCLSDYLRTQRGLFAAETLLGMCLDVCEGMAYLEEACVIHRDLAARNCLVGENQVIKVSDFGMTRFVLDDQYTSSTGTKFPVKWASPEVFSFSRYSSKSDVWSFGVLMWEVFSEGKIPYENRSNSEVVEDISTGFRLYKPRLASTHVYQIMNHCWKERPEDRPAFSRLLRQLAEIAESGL
Chain of UniProt Q9UF33 (whole entry, looked up): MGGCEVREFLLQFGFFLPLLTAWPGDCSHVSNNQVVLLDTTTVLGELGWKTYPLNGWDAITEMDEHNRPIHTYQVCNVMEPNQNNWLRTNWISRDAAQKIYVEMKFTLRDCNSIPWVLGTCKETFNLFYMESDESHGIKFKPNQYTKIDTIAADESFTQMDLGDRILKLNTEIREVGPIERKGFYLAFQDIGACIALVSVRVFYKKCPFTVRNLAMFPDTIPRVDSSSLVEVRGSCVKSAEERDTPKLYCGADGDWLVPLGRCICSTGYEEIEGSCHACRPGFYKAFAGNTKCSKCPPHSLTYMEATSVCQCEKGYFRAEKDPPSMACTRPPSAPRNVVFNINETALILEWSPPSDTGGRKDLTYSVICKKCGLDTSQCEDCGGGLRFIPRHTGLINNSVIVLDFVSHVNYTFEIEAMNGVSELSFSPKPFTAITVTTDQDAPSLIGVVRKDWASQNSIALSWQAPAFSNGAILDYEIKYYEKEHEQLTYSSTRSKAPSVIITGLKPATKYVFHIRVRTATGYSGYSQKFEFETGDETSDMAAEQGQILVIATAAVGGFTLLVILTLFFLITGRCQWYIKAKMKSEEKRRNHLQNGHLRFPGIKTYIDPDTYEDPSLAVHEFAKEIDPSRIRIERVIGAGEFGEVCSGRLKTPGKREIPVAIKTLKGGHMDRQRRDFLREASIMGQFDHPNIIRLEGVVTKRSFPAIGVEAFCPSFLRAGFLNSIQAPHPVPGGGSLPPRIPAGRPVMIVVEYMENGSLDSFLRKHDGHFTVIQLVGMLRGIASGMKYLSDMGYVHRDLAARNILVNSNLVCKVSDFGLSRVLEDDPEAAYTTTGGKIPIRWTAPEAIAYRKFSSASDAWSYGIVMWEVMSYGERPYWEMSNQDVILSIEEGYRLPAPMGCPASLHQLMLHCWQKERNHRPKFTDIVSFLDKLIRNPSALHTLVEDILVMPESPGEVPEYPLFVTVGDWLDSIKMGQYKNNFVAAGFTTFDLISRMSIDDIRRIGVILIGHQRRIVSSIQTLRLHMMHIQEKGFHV
Chain of UniProt P15735 (whole entry, looked up): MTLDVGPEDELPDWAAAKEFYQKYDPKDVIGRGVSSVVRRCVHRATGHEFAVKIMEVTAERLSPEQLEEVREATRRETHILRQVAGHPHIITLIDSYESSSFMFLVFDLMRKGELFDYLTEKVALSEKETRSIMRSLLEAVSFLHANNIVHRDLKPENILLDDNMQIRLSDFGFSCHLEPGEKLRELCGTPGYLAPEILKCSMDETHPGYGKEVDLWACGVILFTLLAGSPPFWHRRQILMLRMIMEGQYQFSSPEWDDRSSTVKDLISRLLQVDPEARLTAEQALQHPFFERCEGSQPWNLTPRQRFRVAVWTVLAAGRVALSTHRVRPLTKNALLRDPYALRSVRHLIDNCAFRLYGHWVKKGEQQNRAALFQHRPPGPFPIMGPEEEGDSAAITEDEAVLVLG

Series 1 — species: mouse; matrix: microsomes or S9; tested at: 2 µM; time: 0.5 h
| Compound | remaining compound [%] |
| --- | --- |
| CCc1ccc(S(=O)(=O)C2CS(=O)(=O)CC2NCc2ccccc2C)cc1 (stereo not drawn) | 0.0254 |
| COCCOc1cc(=O)n2c(c1C(=O)NCc1ccc(OC)cc1)CCOCC2 | 92.3 |
| Cc1ccc(S(=O)(=O)N2c3c(c4ccccc4n3Cc3ccccc3)CC=CC2c2ccccc2)cc1 (stereo not drawn) | 34.7 |
| CCNc1nc(NC(C)(C)C)nc(Oc2ccc(=O)n(CC)n2)n1 | 16.2 |
| CC(CC(=O)c1ccccc1)n1nnc(-c2ccccc2)n1 (stereo not drawn) | 5.6 |
| CCn1cc(C(=O)NCc2ccc3c(c2)OCO3)c(=O)c2cc(F)c(N3CCN(C)CC3)cc21 | 32.3 |
| COc1ccc([C@H]2COc3c(ccc(O)c3OC)C2)c(OC)c1O | 10.8 |
| O=C(NC1CCCCC1)c1nnn(-c2ccccc2Cl)c1-c1cccnc1 | 29.3 |
| CC(C)(C)S(=O)(=O)c1ccc2nc3c(n2c1)CCCC3 | 4.61 |
| CC(c1cnccn1)N1CCN(S(C)(=O)=O)c2ccccc2C1 (stereo not drawn) | 15.7 |
| C[C@H]1CCCC(=O)CCCCCc2cc(OCc3ccccc3)cc(O)c2C(=O)O1 | 22.3 |
| CCc1cc2c(nc(-c3ccccc3)n3nnnc23)s1 | 96 |
| CC(CNc1nc(-c2ccccc2)nc2nc(-c3ccccc3)oc12)N1CCN(C)CC1 (stereo not drawn) | 59.5 |
| CCOC(=O)C1=C(O)CN(Cc2ccc(F)cc2)C1=O | 85.8 |
| CNC(=O)/C(=C/OC)n1c(-c2ccc(F)cc2F)noc1=O | 33.7 |

Series 2 — cell line: HaCaT; tested at: 100 µM; time: 36 h
| SMILES | viability [%] |
| --- | --- |
| C=CC1=C(C(=O)O)N2C(=O)[C@@H](NC(=O)/C(=N\O)c3csc(N)n3)[C@H]2SC1 | 61.3 |
| COC(=O)CCc1ccc(OCC(O)CNC(C)C)cc1 (stereo not drawn) | 86.4 |
| COc1ccc2c(c1)c(CC(=O)O)c(C)n2C(=O)c1ccc(Cl)cc1 | 76.8 |
| CC(NCCC(c1ccccc1)c1ccccc1)c1ccccc1 (stereo not drawn) | 4.62 |
| Nc1nnc(-c2cccc(Cl)c2Cl)c(N)n1 | 89 |
| CN(CCOc1ccc(CC2SC(=O)NC2=O)cc1)c1ccccn1 (stereo not drawn) | 49.8 |
| C[C@H](O)C(=O)Nc1c(I)c(C(=O)NC(CO)CO)c(I)c(C(=O)NC(CO)CO)c1I | 99.4 |
| C#C[C@]1(O)CC[C@H]2[C@@H]3CCC4=Cc5oncc5C[C@]4(C)[C@H]3CC[C@@]21C | 5.4 |
| Nc1cccc2c1C(=O)N(C1CCC(=O)NC1=O)C2=O (stereo not drawn) | 92.2 |
| O=c1ccc2ccccc2o1 | 90.3 |
| Cc1cn[nH]c1 | 90.4 |
| OC[C@@H](O)[C@H](O)[C@@H](O)CO | 100 |
| CC(=O)[C@H]1CC[C@H]2[C@@H]3C[C@H](C)C4=CC(=O)CC[C@]4(C)[C@H]3[C@@H](O)C[C@]12C | 53.1 |

Series 3 — method: competition with immobilised ligand; tested at: 1 µM
Compound: Cc1c(C(=O)O)cc(-c2ccc(C3CCNCC3)cc2)c2ccc(-c3ccc(C(F)(F)F)cc3)cc12
| target | effect on | remaining binding [%] |
| --- | --- | --- |
| ROS1 (Homo sapiens, UniProt P08922) | cell-free assay | 100 |
| EPHB4 (Homo sapiens, UniProt P54760) | cell-free assay | 100 |
| PAK3 (Homo sapiens, UniProt O75914) | cell-free assay | 100 |
| PHKG2 (Homo sapiens, UniProt P15735) | cell-free assay | 100 |
| ACVR1 (Homo sapiens, UniProt Q04771) | cell-free assay | 100 |
| STK35 (Homo sapiens, UniProt Q8TDR2) | binding | 100 |
| EGFR (Homo sapiens, UniProt P00533) | cell-free assay | 100 |
| MTOR (Homo sapiens, UniProt P42345) | cell-free assay | 96 |
| TAOK2 (Homo sapiens, UniProt Q9UL54) | binding | 100 |
| PIK3CG (Homo sapiens, UniProt P48736) | cell-free assay | 100 |
| CSK (Homo sapiens, UniProt P41240) | cell-free assay | 100 |
| RET (Homo sapiens, UniProt P07949) | cell-free assay | 99 |
| WNK4 (Homo sapiens, UniProt Q96J92) | binding | 100 |
| MAPK8 (Homo sapiens, UniProt P45983) | binding | 100 |
| ITK (Homo sapiens, UniProt Q08881) | cell-free assay | 100 |
| PRKD3 (Homo sapiens, UniProt O94806) | binding | 100 |
| PIK3C2G (Homo sapiens, UniProt O75747) | binding | 100 |
| Tyrosine-protein kinase ABL1, phosphorylated (ABL1, Homo sapiens, UniProt P00519, E255K) | binding | 96 |
| MKNK1 (Homo sapiens, UniProt Q9BUB5) | binding | 100 |
| MKNK2 (Homo sapiens, UniProt Q9HBH9) | binding | 100 |
| PAK4 (Homo sapiens, UniProt O96013) | cell-free assay | 100 |
| EIF2AK1 (Homo sapiens, UniProt Q9BQI3) | binding | 77 |
| NEK5 (Homo sapiens, UniProt Q6P3R8) | binding | 100 |
| EPHA6 (Homo sapiens, UniProt Q9UF33) | cell-free assay | 100 |
| DMPK (Homo sapiens, UniProt Q09013) | binding | 86 |

Series 4 — tested at: 1 µM
SMILES: CC(C)S(=O)(=O)c1ccc2nccc(Nc3ccc4sc(C5CCCC5)nc4c3)c2c1.Cl
| target | effect on | action | remaining activity |
| --- | --- | --- | --- |
| EPHB4 (Homo sapiens, UniProt P54760) | kinase activity | inhibitor | 110% |
| MLCK(h) (human) |  |  | 94% and 96% |
| EIF2AK3 (Homo sapiens, UniProt Q9NZJ5) | kinase activity | inhibitor | 103% |
| DCLK2 (Homo sapiens, UniProt Q8N568) | kinase activity | inhibitor | 126% |
| CDK18 (Homo sapiens, UniProt Q07002) | kinase activity | inhibitor | 102% |
| CLK4 (Homo sapiens, UniProt Q9HAZ1) | kinase activity | inhibitor | 101% |
| GRK7 (Homo sapiens, UniProt Q8WTQ7) | kinase activity | inhibitor | 99% |
| PIM2 (Homo sapiens, UniProt Q9P1W9) | kinase activity | inhibitor | 95% |
| GRK5 (Homo sapiens, UniProt P34947) | kinase activity | inhibitor | 105% |
| PHKG1 (Homo sapiens, UniProt Q16816) | kinase activity | inhibitor | 87% |
| ALK (Homo sapiens, UniProt Q9UM73) | kinase activity | inhibitor | 83% |
| VRK2 (Homo sapiens, UniProt Q86Y07) | kinase activity | inhibitor | 95% |
| SGK3 (Homo sapiens, UniProt Q96BR1) | kinase activity | inhibitor | 103% |
| EPHA4 (Homo sapiens, UniProt P54764) | kinase activity | inhibitor | 111% |
| MKNK1 (Homo sapiens, UniProt Q9BUB5) | kinase activity | inhibitor | 116% |
| NTRK2 (Homo sapiens, UniProt Q16620) | kinase activity | inhibitor | 98% |

Some of these lines once more (series 1):
| Compound | remaining compound [%] |
| --- | --- |
| COCCOc1cc(=O)n2c(c1C(=O)NCc1ccc(OC)cc1)CCOCC2 | 92.3 |
| Cc1ccc(S(=O)(=O)N2c3c(c4ccccc4n3Cc3ccccc3)CC=CC2c2ccccc2)cc1 (stereo not drawn) | 34.7 |
| CCNc1nc(NC(C)(C)C)nc(Oc2ccc(=O)n(CC)n2)n1 | 16.2 |
| CC(CC(=O)c1ccccc1)n1nnc(-c2ccccc2)n1 (stereo not drawn) | 5.6 |
| CCn1cc(C(=O)NCc2ccc3c(c2)OCO3)c(=O)c2cc(F)c(N3CCN(C)CC3)cc21 | 32.3 |
| COc1ccc([C@H]2COc3c(ccc(O)c3OC)C2)c(OC)c1O | 10.8 |
| O=C(NC1CCCCC1)c1nnn(-c2ccccc2Cl)c1-c1cccnc1 | 29.3 |
| CC(C)(C)S(=O)(=O)c1ccc2nc3c(n2c1)CCCC3 | 4.61 |
| CC(c1cnccn1)N1CCN(S(C)(=O)=O)c2ccccc2C1 (stereo not drawn) | 15.7 |
| C[C@H]1CCCC(=O)CCCCCc2cc(OCc3ccccc3)cc(O)c2C(=O)O1 | 22.3 |
